Published values gathered from unrelated publications.
Each line is one published result; not all experiments were run side by side.
Cell line: KM12

With `CC(=C(c1ccc(O)cc1)c1ccc(Cl)cc1)c1ccc(Cl)cc1` the GI50 was 0.58 µM (cell growth or viability, SRB).
For `COc1cc(CNC(=O)C[C@H](C)CCC=C(C)C)ccc1OCc1cn(-c2ccc(F)cc2)nn1`, the growth percent was 96.4% (SRB; 10 µM, 48 h).
With `COc1ccc(C2=Nn3c(NN=C4C(=O)N(C)c5ccc(Br)cc54)nnc3SC2)cc1` the inhibition was 18% (cell growth or viability, SRB; 10 µM).
The growth percent of `COc1cc(CNC(=O)C[C@H](C)CCC=C(C)C)ccc1OCc1cn(-c2ccccc2)nn1` is reported as 96% (SRB; 10 µM, 48 h).
`COc1ccc2c(c1)/C(=N\Nc1nnc3n1N=C(c1ccccc1)CS3)C(=O)N2` has an inhibition of 40% (cell growth or viability, SRB; 10 µM).
With `CC/C=C\C/C=C\C/C=C\C/C=C\C/C=C\C/C=C\CCC(=O)Nc1ccn(C2OC(CO)C(O)C2(F)F)c(=O)n1` (stereo not shown) the TGI was 20.2 µM (NCI60 screen).
With `CC(=O)OC[C@H]1O[C@@H](Sc2sc(C(=O)c3ccc(C)cc3)c(N)c2-c2nc3ccccc3s2)[C@H](OC(C)=O)[C@@H](OC(C)=O)[C@@H]1OC(C)=O` the growth was 69% (SRB; 10 µM, 48 h; baseline: untreated).
For `COc1cc(CNC(=O)C[C@H](C)CCC=C(C)C)ccc1OCc1cn(-c2ccccc2F)nn1`, the growth percent was 99.3% (SRB; 10 µM, 48 h).
`CC(Cc1ccc(Cl)cc1)=C(c1ccc(Cl)cc1)c1ccc(OCCN(C)C)cc1` has a GI50 of 4.16 µM (cell growth or viability, SRB).
The growth of `CC(=O)OC[C@H]1O[C@@H](Sc2sc(C(=O)c3ccc(Br)cc3)c(N)c2-c2nc3ccccc3s2)[C@H](OC(C)=O)[C@@H](OC(C)=O)[C@H]1OC(C)=O` is reported as 106% (SRB; 10 µM, 48 h; baseline: untreated).

A few entries again:
With `CC(=O)OC[C@H]1O[C@@H](Sc2sc(C(=O)c3ccc(C)cc3)c(N)c2-c2nc3ccccc3s2)[C@H](OC(C)=O)[C@@H](OC(C)=O)[C@@H]1OC(C)=O` the growth was 69% (SRB; 10 µM, 48 h; baseline: untreated).
